Assay results from different studies.
Parts stem from different laboratories: compare values within a part only.

Block 1 — method: RNA Bind-n-Seq; molecule type: RNA; matrix: in vitro; tested at: 365 nM; reference: no-protein control; direction: higher = stronger binding
Target: RNA binding protein fox-1 homolog 2, RRM domain, GST-SBP tag (RBFOX2, Homo sapiens, UniProt O43251-10, residues 100-194)
Notes: natural RNA segment, single round, ends assumed
Constant ends, left off below: GGGAGUUCUACAGUCCGACGAUC … UGGAAUUCUCGGGUGCCAA
Target sequence (chain): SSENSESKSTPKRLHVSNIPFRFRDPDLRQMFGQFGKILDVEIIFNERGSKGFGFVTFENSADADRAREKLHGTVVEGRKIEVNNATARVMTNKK
| Sequence | RBNS enrichment (R) |
| --- | --- |
| CAGCUUACAUCUGGUCACCCCAUCUGAUUCCUGCCACACAGACUCCAUCGGUUUCCUCCAGGGCAGCGCCCCACUUCGCCCCUUCCGCAGUGGAGAAGGGCAGCCAAGUU | 0.318 |
| ACCUGUAAUGGGCUCUGACGCCCUCUUCUGAUGUGUGUCUGAAGACAGCUGCAGUGGACUCAUAAGUAAAAAGACCUCUUCCUUUGGCUUGGGGUACACCUUUGGAUGCU | 0.481 |
| UGCCAUAACCACAUUUAAUGGGAAAAACGGCAGUAUCACAGAUGUAAAUUAACUCACCAGAUUUACUGGGCCUGAACUCAUUCUCUUCUUGCUAUAUGAUUUAGCAAGUU | 0.229 |
| UUGAAGAAACUUGCAGUGUCGAGUGCUGCUUGACAUGCCAGAUGUGUCAGACACUCAACUGACAUUACUACUUUAGUUCCUUUUGCUUUUUUCAUUUAUCUGUGGAAACA | 0.391 |
| CAGGAGUGCCAAAGGACACUAUGAACUUUUUGAACUGACAGUUUCUCCUAACUUUCUGCUUUAGCGUAAUUGCUCAGAGUAGAGAGCCCCCACAAAGUUAUUUAAAAGAU | 0.439 |
| UCGGGCCAGACCGAUGUGGAUCACCCGCUGUGUGAGGAAUGCACAGACACUCUUUUAGACCAGCUGGACACUCAGCUCAAUGUCACUGAGAAUGAAUGUCAGAACUACAG | 1.52 |
| UGUGUUUGAUCUCAGGAGUCCAAAAUAAGUUGUUGCUUCUAGUGUCCUGCAUUUUAUUGACUGGGGUUUGAUCUCAGCUUCUGAAAAUGUUUAAAAAUUGGAAGGAAAUA | 0.331 |
| UUGAGGAAGAAUGCCUGACUCAAAACUGUGACUCUAGAGAACAAUGCACAGCCCUGAGACCCCACUGGACUGCUGCUCCUUAGCUGGUCUAAAUAGAGCUUCUCUGUCCG | 0.226 |
| CAGCCCCAGCCCGGGUCCAUUGCCCACAUUCUCUGUCUCCUUCUCGUCGGUCUACCCCACUACCUCCAGGGUUUUGCUUUGUCCUUUUGUGACCGUUAGUCUCUAAGCUU | 0.365 |
| AACCAUCUCUCAUGGUUGUUAGCAAGAUGCCUAACACACUCAAGCAAACUAAGCACUGUCACUUUCCUUUCUGAACCAUCUCAGCCAAAAAGGCCACCAUGAGGACAUCU | 0.383 |
| UGCCCCAGGACCUUGAGAGACAGCAGCAUUCCAGGCACAGACAGACUUGGCUGCACCCCACUGUCCCUUGCAAGACAGGUUCUGGAGCCAGGAGCAACUGUCCAGCCCUC | 0.442 |
| AUUAUAGGAUUUGUAUUUUCUCCUUUUUUUUCCCCCUUCCAUUCCUUCUCCCCUCUUGCAUUCAAGAUUAUGAAACUUUGCUAUGGGCCCUGCACUUCCUUUGCUUCCUC | 1.44 |

Block 2 — method: RNAcompete; molecule type: RNA; matrix: in vitro; tested at: 20 nM; notes: 7-mer, probes averaged, single round; reference: mean of 7-mers; direction: higher = stronger binding
Target: PABPC1L2, full length, GST fusion (mouse, UniProt A0ABA7IW68)
Residues (chain): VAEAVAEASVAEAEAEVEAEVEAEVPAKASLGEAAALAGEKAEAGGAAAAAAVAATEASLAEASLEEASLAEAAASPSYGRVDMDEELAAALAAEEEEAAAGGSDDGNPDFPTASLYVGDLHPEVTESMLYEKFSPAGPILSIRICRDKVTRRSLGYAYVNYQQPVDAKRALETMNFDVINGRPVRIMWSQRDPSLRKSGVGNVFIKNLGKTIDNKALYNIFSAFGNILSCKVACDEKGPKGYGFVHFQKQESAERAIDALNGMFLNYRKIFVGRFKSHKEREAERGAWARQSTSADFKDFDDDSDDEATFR
| Sequence | 7-mer Z-score |
| --- | --- |
| GGAUAGG | 0.238 |
| CCAGUGC | -0.219 |
| GAGCCAG | -0.0881 |
| CUAUCGG | -0.0881 |
| UAGUCCA | -0.267 |
| AGUGUGC | -0.0536 |
| CACAGGA | 0.2 |
| GCUAACC | -0.159 |
| UGUGUUG | -0.369 |
| GCCGGGG | -0.0192 |
| UAGGUGA | 0.0623 |
| GCACAGU | -0.173 |
| CUCCAUU | -0.248 |
| GAGAAAA | 3.91 |
| UUUUCGC | -0.376 |
| CCAGCUA | -0.242 |
| GUCCGUC | -0.331 |
| ACUGUCG | -0.277 |
| AUGAGCU | -0.2 |
| AAGGCCC | -0.0391 |
| CGUUGAA | -0.0881 |
| GGAUAAA | 1.78 |
| ACCUGAA | -0.079 |
| UCCCUGC | -0.405 |
| AACUACC | -0.231 |

Block 3 — method: protein binding microarray; molecule type: double-stranded DNA, one strand shown; matrix: in vitro; tested at: not given; reference: not given; direction: higher = stronger binding
Target: Histone acetyltransferase KAT6A, both winged helices, GST fusion (KAT6A, Homo sapiens, UniProt Q92794, residues 1-181)
Notes: 8-mer, flanks averaged, mean of 2 arrays, mostly near background
Residues (chain): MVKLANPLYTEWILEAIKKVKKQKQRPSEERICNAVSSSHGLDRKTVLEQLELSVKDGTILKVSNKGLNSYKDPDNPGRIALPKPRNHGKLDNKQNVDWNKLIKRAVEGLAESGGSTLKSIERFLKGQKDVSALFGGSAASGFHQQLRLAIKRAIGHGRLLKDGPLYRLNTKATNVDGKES
| Sequence | E-score |
| --- | --- |
| AAGGTTTC | -0.0578 |
| AGCCTTGA | -0.148 |
| CACCAGAC | -0.109 |
| ACTACCGG | 0.089 |
| GAGGGTGA | -0.12 |
| AGGTTTGG | -0.13 |
| ATGCCTGA | -0.254 |
| AGTAATAA | -0.0839 |
| CGGTTACA | 0.161 |
| AAGCCAGT | -0.357 |
| AACGCATA | 0.145 |
| TCTAGTCA | -0.108 |
| AATGGGGT | -0.117 |
| ATTCGTTA | -0.0318 |
| GACGGACC | 0.192 |
| ACGAGCCA | -0.277 |
| AAGTATAG | -0.0999 |
| AGAACTCC | -0.157 |
| ATGCCAAC | -0.104 |
| CTTTGATC | -0.159 |
| GCGATCTA | 0.161 |
| CGTCGCGA | 0.324 |
| GCAAGCCA | -0.179 |
| GACATGGA | -0.0349 |
| CACACTCA | -0.206 |

Block 4 — method: RNA Bind-n-Seq; molecule type: RNA; matrix: in vitro; tested at: not given; reference: input RNA pool; direction: higher = stronger binding
Target: RING finger protein unkempt homolog, zinc fingers 1-6, GST-SBP tag (UNK, Homo sapiens, UniProt Q9C0B0, residues 30-357)
Notes: RNA with constant flanks, human and mouse sites, ends assumed
Constant ends, left off below: GGGAGUUCUACAGUCCGACGAUC … CAACAGAGGAUUGAGCAUCA
Target sequence (chain): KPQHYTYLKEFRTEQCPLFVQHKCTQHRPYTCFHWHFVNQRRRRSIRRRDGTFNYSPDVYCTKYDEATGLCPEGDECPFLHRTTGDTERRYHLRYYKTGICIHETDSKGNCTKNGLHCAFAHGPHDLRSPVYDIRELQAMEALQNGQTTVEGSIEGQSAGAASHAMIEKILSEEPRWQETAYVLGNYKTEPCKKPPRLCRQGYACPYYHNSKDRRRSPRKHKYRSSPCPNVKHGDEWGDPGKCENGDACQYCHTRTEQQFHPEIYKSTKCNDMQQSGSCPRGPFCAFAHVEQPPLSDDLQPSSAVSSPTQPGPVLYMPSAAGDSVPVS
| Sequence | bound/input enrichment [ratio] |
| --- | --- |
| GAGGUCCUGAGACAGGAAGACAAAGCUGAAGCCAUGUCCGGCCAUAUUGAUCAGUUUCUGAUAGCCACUUUUAUGCAGCUAAGACUCAUCUACAACACACACAUGGCAGAUGAGAAAUUG | 0.317 |
| AUCUAUGCUAACCUGUCUGAUGAAAAGGCUUUCGUGUUUUCAGUCGCCUUGGCAGAAAUAAAUAGAAAAAUUAUCAAUCAAAGACUUAUUCUCUGAUACUUGUUUGCAAAAUCUGCUGAA | 1.77 |
| UAUUUAUAUUUAUUGACUCUUGAGUUGUUUUUGUAUAUUGGUUUUAUGAUGACGUACAAGUAGUUCUGUAUUUGAAAGUGCCUUUGCAGCUCAGAACCACAGCAACGAUCACAAAUGACU | 0.644 |
| AUUCAUGCAUUUUAAAACUUCACUAAGAUAUUGUCUCAUAUCUUUAUGAGAAUGUCAGCUGACUUUUCAACUAACAGUAAAUGUAUUUUAGAUAUCUAAAUCUUUUGAAAUUUGGUUUUA | 0.966 |
| GCCAGAGGGGUUCUCAAGUGUGACAUUACAGAUCUCCAAAUCAUUUGCUCCUUGGGAUAUAGCAUUCUUCUCAUGGUCACAUGUACUGUGUAUGCCAUCAAGACUCGGGGUGUACCCGAG | 0.205 |
| UGUGCUGAAUUACACCAAAAUGUAAAUGUGAAAAACAUAAUCAUUGCUUUAAUUGACAGAUUAGCUUUAUUUGCUCAUCGUGAAGAUGGACCCGGAAUUCCAGCUGAGAUUAAACUUUUU | 0.327 |
| CGCAUUUUGAUGGUUGGAUUGGAUGCUGCUGGCAAGACGACAAUUCUGUAUAAACUGAAAUUAGGGGAAAUAGUCACCACCAUUCCUACCAUUGGUUUUAAUGUGGAAACAGUAGAAUAU | 0.975 |
| GAGAUGAAGAAGAAGAUUAACCUGGAGUUAAGGAACAGAUCCCCGGAGGAGGUGACAGAGUUAGUCCUUGAUAAUUGCCUGUGUGUCAAUGGGGAAAUUGAAGGCCUGAAUGAUACUUUC | 0.232 |
| GAUGUAGAAAUAAUCUUUAAUGAACGUGGCUCUAAGGGAUUCGGGUUCGUAACUUUCGAGAAUAGUGCUGAUGCAGACAGGGCCAGGGAGAAAUUACACGGCACCGUGGUAGAGGGCCGU | 1.46 |
| GUGAGAGAACGCCGAGCCGUCGCCGCAGCCUCCGCCGCCGAGAAGCCCUUGUUCCCGCUGCUGGGAAGGAGAGUCUGUGCCGACAAGAUGGCGGACGGGGAGCUGAACGUGGACAGCCUC | 0.0727 |
| UUGGAUUUCAUUUCCCCAGGUCUUCAGUGUUGAUGUAAAUGUGUUUCUGUAGUGUUGCUUAUUAGCACUUUGCGCAUUGUGUAAGUUGGGUAGCAAAAAUGGCAAAAGAGAUGCAAAAUU | 0.258 |

For quick reference, copied from above (block 1):
| Sequence | RBNS enrichment (R) |
| --- | --- |
| CAGCUUACAUCUGGUCACCCCAUCUGAUUCCUGCCACACAGACUCCAUCGGUUUCCUCCAGGGCAGCGCCCCACUUCGCCCCUUCCGCAGUGGAGAAGGGCAGCCAAGUU | 0.318 |
| CAGGAGUGCCAAAGGACACUAUGAACUUUUUGAACUGACAGUUUCUCCUAACUUUCUGCUUUAGCGUAAUUGCUCAGAGUAGAGAGCCCCCACAAAGUUAUUUAAAAGAU | 0.439 |
| UGUGUUUGAUCUCAGGAGUCCAAAAUAAGUUGUUGCUUCUAGUGUCCUGCAUUUUAUUGACUGGGGUUUGAUCUCAGCUUCUGAAAAUGUUUAAAAAUUGGAAGGAAAUA | 0.331 |
| ACCUGUAAUGGGCUCUGACGCCCUCUUCUGAUGUGUGUCUGAAGACAGCUGCAGUGGACUCAUAAGUAAAAAGACCUCUUCCUUUGGCUUGGGGUACACCUUUGGAUGCU | 0.481 |
| AUUAUAGGAUUUGUAUUUUCUCCUUUUUUUUCCCCCUUCCAUUCCUUCUCCCCUCUUGCAUUCAAGAUUAUGAAACUUUGCUAUGGGCCCUGCACUUCCUUUGCUUCCUC | 1.44 |
| UUGAGGAAGAAUGCCUGACUCAAAACUGUGACUCUAGAGAACAAUGCACAGCCCUGAGACCCCACUGGACUGCUGCUCCUUAGCUGGUCUAAAUAGAGCUUCUCUGUCCG | 0.226 |
| UGCCAUAACCACAUUUAAUGGGAAAAACGGCAGUAUCACAGAUGUAAAUUAACUCACCAGAUUUACUGGGCCUGAACUCAUUCUCUUCUUGCUAUAUGAUUUAGCAAGUU | 0.229 |
